Experimental data of several laboratories.
Numbered parts are unrelated; each lists some results of a single study.

Series 1
Target: RNA binding protein fox-1 homolog 2, RRM domain, GST-SBP tag (RBFOX2, Homo sapiens, UniProt O43251-10, residues 100-194)
Method: RNA Bind-n-Seq
Molecule type: RNA
Matrix: in vitro
Concentration: 365 nM
Setting: natural RNA segment, single round, ends assumed
Reference: no-protein control
Direction: higher = stronger binding
Constant ends, left off below: GGGAGUUCUACAGUCCGACGAUC … UGGAAUUCUCGGGUGCCAA
Target sequence (chain): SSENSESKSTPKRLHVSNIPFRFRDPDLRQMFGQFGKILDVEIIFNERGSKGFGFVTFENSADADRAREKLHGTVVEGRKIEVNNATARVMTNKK
| Strand | RBNS enrichment (R) |
| --- | --- |
| UGCUCAUUGUAACCAUCGUUCACCAGUGUCCGGCCCCUAGUAGGACCACACAUCACUGCCUGAACUCCUUUGGCAGAAGAACCCCACCAGACAUUGAGACAUUGUAUUUU | 0.366 |
| GCCCGGGCGAGGGCAGAGGACACUGGGAGCAAGGCUUAUGCCCCUGCUGCCCGUCCUGUGCUGGGGGCAUGCUGGGACCAGCCGCACCCAGGCCCCAAUGCUUGUGUGUG | 0.673 |
| AUCAACUAUCCCUCGUCGUGAUUGUUGAAAGCUCUUUCACUGUUUUGCAUUCUAGUUUGAAUAGUUUGUAUUGAAAUUGGAUUCCUAUCUUGUGUAUGUUUUUGGUGCGU | 7.16 |
| UCCUGCUGCUGUCCCUCUCCUGGUCUCUCACACUGCAUGGCCUCCUAUCACUGUGAAUUGUGGCCUGGUCGCAGUUUGUAGUUUCAUUAAAUGGCCCUUUCACUCCCCUG | 1.18 |
| AUUACCUCACUCAUUCACAUGUGAGCGACACGCAGACAUCCGCGAGGGCCAGCGUCACCAGACCAGCUGCGGGACAAACCACUCAGACUGCUUGUAGGACAAAUACUUCU | 0.368 |
| UUCCCCCAUAAUGCCAGAAAUUGGCUUAAUGAUGCUUUCACUAAAUUCAUCAAAUAGAUUGCUCCUAAAUCCAAUUGUUAAAAUUGGAUCAGAAUAAUUAUCACAGGAAC | 0.381 |
| GGAUAAUCUGAGCAGGUACAUUUCUGAUUCUGAUUGCUAUCAGCAAUGCCCCAAACUUUCUCAUAAGCACCUAAAACCCAAAGGUGGCAGCUUGUGAAGAUUGGGGACAC | 0.341 |
| GACGUAAAUUUUGAGAGAAAAGUCAAAGGUGCUUCAGCCUUGUACUGUGUAUAUAUAUUAAAAAAAAAACAAAGUUUUGUAUGUUUUUAUUACUUUAACUAUUGUUAUAA | 1.03 |
| UAGGAUUCAAUAGUAUUCACUAACUGCUUAUUACAUGAGCAAUUUCAUCAAAUCUCCAAACUCUUAAAGGAUGCUUUCGGAAAACACGCUGUAUACCUAGAUGAUGACUA | 0.236 |
| ACUGAUGAUUCCUGCAAAAAUAUAAUCGAAGUUUUCCAUCAAAUGUAUAAUAUGCUAUUAAUACACAUUAGAUGAUAACAGUUGUUCCAUGAAUGAUUCUAUGAAGCUAU | 0.616 |
| AUAUAUAUGACAUCUAUUUUGGAAAAUGUUUGCCCUGCUGUACCUCAUUUUUAGGAGGUGUGCAUGGAUGCAAUAUAUGAAAAUGGGACAUUCUGGAACUGCUGGUCAGG | 1.2 |
| UUUAUCUUAUAAUUUCAGUUCAUCUAAAUUGUGUGUUCUGUACAUGUGAUGUUUGACUGUACCAUUGACUGUUAUGGAAGUUCAGCGUUGUAUGUCUCUCUCUACACUGU | 0.76 |

Series 2
Target: Sal-like protein 4, full length isoform B (SALL4, Homo sapiens, UniProt Q9UJQ4-2, residues 1-616)
Method: universal PBM
Molecule type: double-stranded DNA, one strand shown
Matrix: in vitro
Concentration: not given
Setting: 8-mer, flanks averaged, mean of replicates
Direction: higher = stronger binding
Residues (chain): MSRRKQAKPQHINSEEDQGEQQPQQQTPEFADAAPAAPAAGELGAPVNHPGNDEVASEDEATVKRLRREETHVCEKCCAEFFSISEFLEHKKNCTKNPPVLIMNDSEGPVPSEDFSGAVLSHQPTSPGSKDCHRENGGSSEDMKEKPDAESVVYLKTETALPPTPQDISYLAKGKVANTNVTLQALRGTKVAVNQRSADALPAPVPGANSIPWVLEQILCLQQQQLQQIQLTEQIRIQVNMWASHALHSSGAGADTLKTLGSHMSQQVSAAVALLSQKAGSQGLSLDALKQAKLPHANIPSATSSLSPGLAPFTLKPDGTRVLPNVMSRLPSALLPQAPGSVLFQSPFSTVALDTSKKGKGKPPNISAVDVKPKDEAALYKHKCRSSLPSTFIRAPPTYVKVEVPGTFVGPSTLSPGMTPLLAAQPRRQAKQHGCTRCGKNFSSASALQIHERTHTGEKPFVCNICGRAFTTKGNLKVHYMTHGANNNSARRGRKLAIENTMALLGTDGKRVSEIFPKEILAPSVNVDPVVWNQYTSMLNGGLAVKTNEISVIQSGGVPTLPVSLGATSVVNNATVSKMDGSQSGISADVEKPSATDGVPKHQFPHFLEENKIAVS
| Strand | E-score |
| --- | --- |
| CCCAGCTC | -0.287 |
| AGACTATC | 0.0964 |
| AGACACTC | -0.106 |
| AACGCTTC | 0.0664 |
| AATCCCCT | -0.106 |
| AGTCATTA | 0.157 |
| TCGGGTCA | -0.139 |
| ATAGTAAA | 0.228 |
| ACAGGTTC | -0.0428 |
| AAAAAGAA | 0.201 |
| GAATGCCA | 0.029 |
| CAGTCACA | 0.0112 |
| ACTCAACT | 0.0251 |
| CAGACGTC | -0.091 |
| ATAGACAG | 0.216 |
| ATGGCATG | 0.113 |
| AGCATGTA | 0.179 |
| CCCTTAAC | -0.091 |
| CAGGGAGG | -0.294 |
| CAAATCTA | 0.256 |
| AGCCTCTA | -0.189 |
| TCCAATAA | 0.296 |
| GTGAATGA | 0.0652 |
| AGTCATTG | 0.0766 |
| ATAATGAA | 0.362 |

Series 3
Target: Ras GTPase-activating protein-binding protein 1, full length (G3BP1, Homo sapiens, UniProt Q13283)
Sequence of UniProt Q13283 (whole entry, looked up): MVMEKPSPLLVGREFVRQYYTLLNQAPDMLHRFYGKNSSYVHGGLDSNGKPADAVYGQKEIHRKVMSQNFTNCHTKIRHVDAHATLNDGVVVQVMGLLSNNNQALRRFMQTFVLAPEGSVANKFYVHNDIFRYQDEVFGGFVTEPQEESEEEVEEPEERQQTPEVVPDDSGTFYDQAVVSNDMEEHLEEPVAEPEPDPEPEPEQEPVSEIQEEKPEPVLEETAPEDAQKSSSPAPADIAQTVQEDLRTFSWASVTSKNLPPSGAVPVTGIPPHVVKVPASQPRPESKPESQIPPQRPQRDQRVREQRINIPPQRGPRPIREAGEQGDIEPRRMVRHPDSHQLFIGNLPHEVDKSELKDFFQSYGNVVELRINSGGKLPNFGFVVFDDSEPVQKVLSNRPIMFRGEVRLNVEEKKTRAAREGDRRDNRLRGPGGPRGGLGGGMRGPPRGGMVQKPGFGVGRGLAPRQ
Method: RNA Bind-n-Seq
Molecule type: RNA
Matrix: in vitro
Concentration: 200 nM
Setting: whole 134-nt RNA, ends assumed
Together with: 150 mM KCl
Reference: input library
Direction: higher = stronger binding
Constant ends, left off below: GGGAGUUCUACAGUCCGACGAUC … UGGAAUUCUCGGGUGUCAAGG
| Strand | log2 enrichment |
| --- | --- |
| CCUGUGCUACACAUCGUAUGUACCGAAUCGGGGCCCCCCGGGGCCCCCCGGGCCCCCCGGAAAGUAUUAUGUUACGCCGUUCGGAUCUGC | -0.595 |
| GCAGGAAGUAAAAACAAAUGGAAAUGCUUCGGAUAGUGGCAGGGGUGGGGGUUGCUAAGGAAAGGGUGGGAUGGGAGUGGGUAACGAGUU | 1.06 |
| CAAGUCCUGUGCUACACAUCGUAUGUACCGAAUCGGGUUUGGGGUUUGGGGUUUGGAAAGUAUUAUGUUACGCCGUUCGGAUCUGCACUU | -0.267 |
| AGUCCUGUGCUACACAUCGUAUGUACCGAAUCGGGUUUUGGGGUUUUGGGGUUUUGGGAAAGUAUUAUGUUACGCCGUUCGGAUCUGCAC | -0.0378 |
| AAAAUAAGCCUAAGAAAGAAUUAAUUAAAGUUCUGAUUCAGAGGGGAUAUGAUUCGGAUCCUGUGAAGGCCUGGAAAGAAGCCCAGCAAA | -0.574 |
| UUACACCAAUGAGAAGCUGCAGCAGCUCUUCAACCACACCAUGUUCAUCCUGGAGCAGGAGGAGUACCAGCGCGAGGGCAUCGAGUGGAA | -0.557 |
| GUCCUGUGCUACACAUCGUAUGUACCGAAUCGGGGUUUUUGGGGAAAAAGGGGAGGGGAAAGUAUUAUGUUACGCCGUUCGGAUCUGCAC | 0.461 |
| ACCAUGCAGGUGGGCAUCUUUGGGAAGUGGGGCAAGGGGGGGAUAGGGAGGGGGGUAACACUUUGGGAACAGGUGGCCCCAGGUCGUUUC | 1.18 |
| CCUCAAGUCCUGUGCUACACAUCGUAUGUACCGAAUCGGGAGGAGGGGAGGGAAAGUAUUAUGUUACGCCGUUCGGAUCUGCACUUCCAG | 1.22 |
| CAAGUCCUGUGCUACACAUCGUAUGUACCGAAUCGGGAAAGGAAAGGGGAAAGGGAAAGUAUUAUGUUACGCCGUUCGGAUCUGCACUUC | 0.179 |
| GUCCUGUGCUACACAUCGUAUGUACCGAAUCAAAUUUUUAAAUUUUUUUAAACCCAAAAAAGUAUUAUGUUACGCCGUUCGGAUCUGCAC | -0.345 |
| UUUUCAAGGGCCGCUUGAAGAUGCCAUUGAAGAUGAGGAAGAAGAAUGUCCAUCAGAGGAAACAGACAUCAUCUCCAAAGGAGACUUUCC | -1.55 |
| CAAGUCCUGUGCUACACAUCGUAUGUACCGAAUCGGAAAAAGGUGGUUUUUUUGGAAAGUAUUAUGUUACGCCGUUCGGAUCUGCACUUC | -1.25 |
| UAACUUUAGAGGAGGAUCUGAUGGAUAUGGCAGUGGACGUGGAAUUGGGGAUGGCUAUAAUGGGUAUGGAGGAGGACCUGGAGGUGGCAA | 0.304 |

Series 4
Target: Prothrombin, mature alpha-thrombin (F2, Homo sapiens, UniProt P00734)
Method: aptamer microarray, sandwich
Molecule type: DNA with 2'F-ANA
Matrix: in vitro
Concentration: 200 nM
Setting: whole 15-mer aptamer, many near background
Together with: Cy3 exosite-II aptamer, 400 nM
Direction: higher = stronger binding
Strand: GGTTGGTGTGGTTGG
| Modification | mean fluorescence intensity [a.u.] |
| --- | --- |
| 2'F-ANA at 2 6 8 13 | 343 |
| 2'F-ANA at 2 7 8 9 11 15 | 445 |
| 2'F-ANA at 4 7 8 9 13 15 | 189 |
| 2'F-ANA at 1 6 7 11 12 13 14 | 202 |
| 2'F-ANA at 2 3 4 5 6 7 11 14 | 55.5 |
| 2'F-ANA at 2 3 4 6 7 9 10 11 12 15 | 227 |
| 2'F-ANA at 3 5 7 8 9 10 14 15 | 52.4 |
| 2'F-ANA at 2 6 8 9 10 11 12 13 14 | 80.6 |
| 2'F-ANA at 2 3 4 5 6 9 11 12 13 15 | 90.9 |
| 2'F-ANA at 2 6 7 8 10 | 140 |
| 2'F-ANA at 6 7 9 10 12 13 | 199 |
| 2'F-ANA at 1 2 3 6 7 9 11 12 13 | 224 |
| 2'F-ANA at 1 2 3 5 6 7 9 10 12 13 14 | 46.3 |
| 2'F-ANA at 1 2 3 5 7 10 11 13 | 89 |
| 2'F-ANA at 5 6 10 11 12 | 48 |
| 2'F-ANA at 1 2 3 4 5 7 8 9 10 11 12 14 15 | 54.9 |
| 2'F-ANA at 1 2 4 5 6 7 8 9 11 | 57 |
| 2'F-ANA at 2 3 9 11 12 14 | 512 |
| 2'F-ANA at 1 3 5 6 7 10 12 13 | 50.9 |
| 2'F-ANA at 2 4 6 7 9 10 11 12 13 14 15 | 62.5 |
| 2'F-ANA at 1 3 4 8 10 12 | 86 |
| 2'F-ANA at 1 2 4 7 9 10 11 12 13 14 | 47.6 |
| 2'F-ANA at 1 2 6 7 8 9 10 13 14 | 48.6 |
| 2'F-ANA at 1 2 3 5 10 12 | 45.4 |
| 2'F-ANA at 1 2 3 4 6 7 8 12 15 | 367 |

Excerpt of the above (series 2):
| Strand | E-score |
| --- | --- |
| CAAATCTA | 0.256 |
| GAATGCCA | 0.029 |
| ATAGTAAA | 0.228 |
| ACTCAACT | 0.0251 |
| GTGAATGA | 0.0652 |
| ATAGACAG | 0.216 |
| AATCCCCT | -0.106 |
| ATGGCATG | 0.113 |
| CAGTCACA | 0.0112 |
| CCCTTAAC | -0.091 |
